# Published values from different studies.
# Several values in a cell are separate wells, animals, samples, runs or records. Numbers after ± are the reported error.
SMILES,test,test system,conditions,how to read,measurement,value
Cc1cc(-c2ccc(C(=O)[C@@H]3CCCC[C@H]3C(=O)Nc3cnn4c3C(=O)NCC4)cc2)[nH]n1,,"human, faeces","oral, 200 mg, 0-288 h",reference: dose,cumulative recovery of radioactivity,79.3%
CN1CC[C@@H](COc2cnc(C#N)cc2-c2ccn3nc(NC(=O)C4CC4)cc3c2)C1,,"rat, Sprague-Dawley, male, plasma","oral, 5 mg/kg",,oral bioavailability,18%
CCCCCCCC(=O)[O][Pt]([Cl])([Cl])[O]C(=O)CCCCCCC.N.N,"ICP-MS, item: platinum","nude mice, blood","intravenous, 1.95 mg/kg",,distribution half-life,3 min and 3.18 min
CC(C)C[C@H](NC(=O)[C@H](CCCN)NC(=O)CNC(=O)[C@@H](NC(=O)[C@H](C)NC(=O)[C@@H]1CSCSC[C@H](NC(=O)CC[C@H](N)C(=O)O)C(=O)N[C@@H](CC(N)=O)C(=O)N[C@@H]([C@@H](C)O)C(=O)N[C@@H](C)C(=O)N[C@@H]([C@@H](C)O)C(=O)N1)[C@@H](C)O)C(=O)N[C@@H](C)C(=O)N[C@@H](CCC(=O)O)C(=O)N[C@@](C)(Cc1ccccc1)C(=O)N[C@@H](CC(C)C)C(=O)N[C@H](C(=O)N[C@@H](CCCNC(=N)N)C(=O)N[C@@H](CO)C(=O)N[C@@H](CO)C(=O)N[C@@H](CC(N)=O)C(=O)N(C)[C@@H](CC(N)=O)C(=O)N[C@@H](Cc1ccccc1)C(=O)NCC(=O)N1CCC[C@H]1C(=O)N[C@@H](CCCCNC(=O)CC[C@H](NC(=O)CC[C@H](NC(=O)CCCCCCCCCCCCCCCCCCC(=O)O)C(=O)O)C(=O)O)C(=O)N[C@@H](CC(C)C)C(=O)N1CCC[C@H]1C(=O)N1CCC[C@H]1C(=O)N[C@H](C(=O)N[C@@H](CCC(=O)O)C(=O)N[C@H](C(=O)NCC(=O)N[C@@H](CO)C(=O)N[C@@H](CC(N)=O)C(=O)N[C@H](C(=O)N[C@@H](Cc1ccc(O)cc1)C(N)=O)[C@@H](C)O)C(C)C)[C@@H](C)O)C(C)C,,"healthy human, plasma","subcutaneous, 0.4 mg single dose, geometric LS mean",,AUC(0-tlast),21400 ng·h/mL
CSCC[C@H](N)C(=O)N[C@@H](CO)C(=O)N[C@H](C(=O)N[C@@H](C)C(=O)NCC(=O)N[C@@H](CC(C)C)C(=O)N[C@@H](CCCCN)C(=O)N[C@@H](CCCCN)C(=O)N[C@@H](CCC(N)=O)C(=O)N[C@@H](Cc1c[nH]c2ccccc12)C(=O)N[C@@H](Cc1ccc(O)cc1)C(=O)N[C@@H](CCCCN)C(=O)N[C@@H](C)C(=O)N[C@@H](CO)C(=O)N[C@@H](CCC(N)=O)C(=O)N[C@@H](CC(C)C)C(=O)N[C@H](C(=O)N[C@@H](CO)C(=O)N[C@@H](CCC(=O)O)C(=O)N[C@@H](CCCCN)C(=O)N[C@H](C(=O)NCC(=O)NCC(=O)N[C@@H](C)C(N)=O)C(C)C)C(C)C)C(C)C,circular dichroism,~60% TFE,,,fractional helicity,71.7%
[2H]C([2H])([18F])Oc1cc(C(=O)OCC2CCN(CCCC)CC2)ccc1N,,n-octanol/phosphate buffer,"pH 7.4, room temperature, 0.15 M sodium phosphate",,logD7.4,1.54 ± 0.02
O=C(Nc1cnccc1-c1ccc([18F])nc1)c1ccnc(NC(=O)C2CC2)c1,,"FVB/NJ mouse, both sexes, brain","intravenous, 20 min, added: tariquidar 15 mg/kg iv",,SUV,0.171
CC(C)(O)c1ncc([S@](N)(=O)=NC(=O)Nc2c3c(cc4c2CCC4)CCC3)s1,,human plasma,-20 °C or below,,freeze-thaw stability,5 cycles
COCC1CN(C2CCN(c3cc(OC)c(Nc4ncc(Br)c(Nc5ccc6c(c5P(C)(C)=O)OCCO6)n4)cc3C)CC2)C1,,"EGFR-mutant NSCLC patients, plasma","oral, 60 mg multiple doses, median",,Tmax at steady state,89.1 min
C=CC(=O)N1CCCC(n2c(=O)c3ncccc3n(Cc3ccc(Oc4ccccc4)cc3)c2=O)C1 (stereo not shown),,"BALB/c mice, male, plasma","intraperitoneal, 200 mg/kg, 4 h",,plasma concentration,1280 ng/mL and 2640 ng/mL and 2990 ng/mL
C=C(NC(=O)c1csc(-c2nc3c(cc2O)-c2nc(cs2)C(=O)NC(C(C)O)C(=O)NC(=C(C)OC)c2nc(cs2)C(=O)NC2c4nc(cs4)C(=O)NC(COC(=O)c4c5c6c(cccc6n4O)COC(=O)C(OC4CC(C)(O)C(N(C)C)C(C)O4)C2OC5)c2nc-3cs2)n1)C(N)=O (stereo not shown),,"Sprague-Dawley rat, male, plasma","intravenous infusion, 6 mg/kg, multiple doses, day 7",,half-life,436 min
CCn1nc(Cl)c2c1-c1cnc(N)c(c1)O[C@H](C)c1cc(F)ccc1-c1nn(C)cc1C2,,"Balb/c nude mouse female, plasma","0.06 mg/kg single dose, 12 h",,free plasma concentration,0.1 nM
CCCCN1C(=O)c2cccc3c(NCCCCCN4CCOCC4)ccc(c23)C1=O,,water,pH 6.0,,fluorescence lifetime,4.3 ns
O=C(O)c1c(O)cc(O[C@@H]2O[C@H](CO)[C@@H](O)[C@H](O)[C@H]2O)cc1/C=C/c1ccccc1,,"Sprague-Dawley rat, plasma","oral, 5.0 mg/kg",,AUC(0-inf),90.7 ± 15.6 ng·h/mL
C=CC(=O)Nc1cccc(Cn2ncc3cnc(Nc4cnn(CCOC)c4)nc32)c1,,"dog, Beagle, both sexes, whole blood","5 µM, 30 min",,remaining compound,80.5%
CN1CCC[C@]1(C)/C=C/S(=O)(=O)NC(=O)Nc1c2c(cc3c1CCC3)CCC2,,human,"oral, 12.5 mg twice daily, 14 days",,"respiratory, thoracic, mediastinal adverse events",0%
O=C(Nc1cnccc1-c1ccc([18F])cc1)c1ccnc(NC(=O)C2CC2)c1,ex vivo gamma counting,"GSK-3β transgenic mice, early-stage, brain stem","intravenous, 120 min",,mean SUV,0.05
CCC1=[N+]2N=C(/C=C/C=C/c3ccccc3)C(=O)O[B-]2(c2ccccc2)Oc2cc(N(CC)CC)ccc21 (stereo not shown),,toluene,,,molar absorption coefficient,60000 M⁻¹ cm⁻¹
C/C(N)=N/C(=N\S(=O)(=O)c1ccc(C(F)(F)F)cc1)N1C[C@H](c2ccccc2)C(c2ccc(Cl)cc2)=N1,,"Sprague-Dawley rat male, plasma","oral, 3 mg/kg",,oral bioavailability,42.7%
C=CC(=O)Nc1cc(Nc2nccc(-c3cn(C)c4ccccc34)n2)c(OC)cc1N(C)CCNC,storage stability,human dried blood spots,"5 h, on ice, medium QC level",,recovery,90%
COc1cccc(OC)c1-c1cc(C(=O)NC2(C(=O)O)C3CC4CC(C3)CC2C4)nn1-c1ccc(C(=O)N(C)CCOCCN(C)C(=O)[C@H](CCCCNC(=O)[C@H](CC(C)C)NC(=O)C2OC2C(=O)O)NC(=O)CN2CCN(CC(=O)[O-])CCN(CC(=O)[O-])CCN(CC(=O)[O-])CC2)cc1C(C)C.[177Lu+3] (mixture of isomers),,"mouse, HT-29 xenograft","4 h post injection, biodistribution",reference: tumour over brain uptake,tumour-to-brain ratio,36
O=[N+]([O-])c1ccc(/C=N/Nc2nnc(N/N=C/c3ccc([N+](=O)[O-])o3)c3ccccc23)o1,haemolysis,human,"10 mM, 45 min",,haemolysis,23.4%
CC(=O)N([O-])CCCCCNC(=O)CCC(=O)N([O-])CCCCCNC(=O)CCC(=O)N([O-])CCCCCN.[89Zr+4],radio-TLC,aqueous buffer,"3 d, pH 7.2, 37 °C, 89Zr-labelled complex, added: CaCl2 10-fold excess",,intact complex,99 ± 1%
CC(C(=O)O)n1nc(Cn2cc3cc(OCC[18F])c(Cl)cc3n2)c2ccccc2c1=O (racemic),,"rat, brain",1 h,,tracer uptake,0.01 %ID/g
CNC(=O)C[C@H](Cc1ccc(C#N)cc1)NC(=O)c1cc(-c2ccc(CN[C@H](C)c3ccc(C)cc3)o2)ccc1Cl,,rat hepatocytes,1 µM,,blood clearance,61.7 mL/min/kg
CCCC[C@H](OC(C)=O)c1ccccc1C(=O)O,,"Sprague-Dawley rats, both sexes, whole blood","intravenous, 5 mg/kg single dose",,AUC(0-inf),4160 ± 794 ng·h/mL
[123I]c1ccc2nc(-c3ccc(-n4ccnn4)nc3)cn2c1,,"male Wistar rat, stomach","intravenous, 4 MBq, 24 h",,tracer uptake,0.024 %ID/g
CCCCN1C(=O)c2cccc3c(NCCCCCCCCCCN4CCOCC4)ccc(c23)C1=O,,dioxane,,,molar extinction coefficient,12600 M⁻¹ cm⁻¹
CN(O)C(=O)CCC(=O)NCCCN(CCCCN(CCCNC(=O)CCC(=O)N(C)O)C(=O)CCC(=O)N(C)O)C(=O)CCC(=O)N(C)O.[89Zr],,PBS,"5 days, pH 7, 37 °C",,intact compound,98 ± 1.7%
C[C@]12COc3ccc(Oc4ccccc4)cc3[C@H]1CCN2,lipid PAMPA,artificial lipid membrane,"10 µM, 16 h",,recovery,2.7%
CCCCN1C(=O)c2cccc3c(NCCN4CCOCC4)ccc(c23)C1=O,,Methanol,,,molar extinction coefficient,7880 M⁻¹ cm⁻¹
C=C[C@]1(C)C[C@@H](OC(=O)CSc2ccc(NC(=O)c3ccco3)cc2)[C@]2(C)[C@H](C)CC[C@]3(CCC(=O)[C@H]32)[C@@H](C)[C@@H]1O,,"M. gallisepticum-infected chickens, plasma","intramuscular, 80 mg/kg single dose",,Tmax,18 min
CCCCN1C(=O)c2cccc3c(NCCCCCCN4CCOCC4)ccc(c23)C1=O,,dichloromethane,,,molar extinction coefficient,10600 M⁻¹ cm⁻¹
CCc1cnc(NC(=O)c2cc(S(=O)(=O)N3CCOCC3)ccc2N(C)C2CCCC2)s1,,mouse,"10 mg/kg, 3 doses",,total bilirubin,0.1 mg/dL

# Repeated from above:
SMILES,test,test system,conditions,how to read,measurement,value
CCCCCCCC(=O)[O][Pt]([Cl])([Cl])[O]C(=O)CCCCCCC.N.N,"ICP-MS, item: platinum","nude mice, blood","intravenous, 1.95 mg/kg",,distribution half-life,3 min and 3.18 min
CC(C)C[C@H](NC(=O)[C@H](CCCN)NC(=O)CNC(=O)[C@@H](NC(=O)[C@H](C)NC(=O)[C@@H]1CSCSC[C@H](NC(=O)CC[C@H](N)C(=O)O)C(=O)N[C@@H](CC(N)=O)C(=O)N[C@@H]([C@@H](C)O)C(=O)N[C@@H](C)C(=O)N[C@@H]([C@@H](C)O)C(=O)N1)[C@@H](C)O)C(=O)N[C@@H](C)C(=O)N[C@@H](CCC(=O)O)C(=O)N[C@@](C)(Cc1ccccc1)C(=O)N[C@@H](CC(C)C)C(=O)N[C@H](C(=O)N[C@@H](CCCNC(=N)N)C(=O)N[C@@H](CO)C(=O)N[C@@H](CO)C(=O)N[C@@H](CC(N)=O)C(=O)N(C)[C@@H](CC(N)=O)C(=O)N[C@@H](Cc1ccccc1)C(=O)NCC(=O)N1CCC[C@H]1C(=O)N[C@@H](CCCCNC(=O)CC[C@H](NC(=O)CC[C@H](NC(=O)CCCCCCCCCCCCCCCCCCC(=O)O)C(=O)O)C(=O)O)C(=O)N[C@@H](CC(C)C)C(=O)N1CCC[C@H]1C(=O)N1CCC[C@H]1C(=O)N[C@H](C(=O)N[C@@H](CCC(=O)O)C(=O)N[C@H](C(=O)NCC(=O)N[C@@H](CO)C(=O)N[C@@H](CC(N)=O)C(=O)N[C@H](C(=O)N[C@@H](Cc1ccc(O)cc1)C(N)=O)[C@@H](C)O)C(C)C)[C@@H](C)O)C(C)C,,"healthy human, plasma","subcutaneous, 0.4 mg single dose, geometric LS mean",,AUC(0-tlast),21400 ng·h/mL
CCCCN1C(=O)c2cccc3c(NCCCCCCCCCCN4CCOCC4)ccc(c23)C1=O,,dioxane,,,molar extinction coefficient,12600 M⁻¹ cm⁻¹
CCCCN1C(=O)c2cccc3c(NCCN4CCOCC4)ccc(c23)C1=O,,Methanol,,,molar extinction coefficient,7880 M⁻¹ cm⁻¹
CNC(=O)C[C@H](Cc1ccc(C#N)cc1)NC(=O)c1cc(-c2ccc(CN[C@H](C)c3ccc(C)cc3)o2)ccc1Cl,,rat hepatocytes,1 µM,,blood clearance,61.7 mL/min/kg
